Results pooled from the literature.
Lines come from different studies, so protocols differ. Several values in a cell are separate wells, animals, samples, runs or records. ± gives the spread as reported.

Structure (SMILES)	test	system	conditions	scale	quantity	value
CC(C)C[C@@H](NC(=O)[C@@H](CCCCN)NC(=O)CNC(=O)CNC(=O)[C@@H]1CSSC[C@H](N)C(=O)NCC(=O)N[C@@H](CCCNC(=N)N)C(=O)N[C@@H](CCCNC(=N)N)C(=O)N[C@@H](C)C(=O)NCC(=O)NCC(=O)N[C@@H](CO)C(=O)N1)C(=O)N[C@H](C)C(=O)N[C@H](CCCCN)C(=O)N[C@H](CC(C)C)C(=O)N[C@H](C)C(=O)N[C@H](CCCCN)C(=O)N[C@H](CCCCN)C(=O)N[C@H](CC(C)C)C(=O)N[C@H](C)C(=O)N[C@H](CCCCN)C(=O)N[C@H](CC(C)C)C(=O)N[C@H](C)C(=O)N[C@H](CCCCN)C(=O)O		mouse	intravenous, 15.0 mg/kg		clearance	0.0488 ± 0.00917 mL/min
CSCC[C@H](NC(=O)CNC(=O)[C@H](CCCCN)NC(=O)[C@H](CC(C)C)NC(=O)[C@@H]1CCCN1C(=O)[C@H](CO)NC(=O)[C@H](Cc1c[nH]cn1)NC(=O)[C@H](Cc1c[nH]c2ccccc12)NC(=O)[C@H](CCCNC(=N)N)NC(=O)[C@H](CC(C)C)NC(=O)[C@H](CCCNC(=N)N)NC(=O)[C@H](Cc1c[nH]c2ccccc12)NC(=O)[C@H](CS)NC(=O)CCCCCNC(=O)CN1CCN(CC(=O)O)CCN(CC(=O)O)CCN(CC(=O)O)CC1)C(=O)O [copper-64 labelled]	PET imaging	BALB/c nude mice, liver	intravenous, dose not given, 55 h, Huh-7 tumour-bearing		tissue uptake	5.05 ± 0.19 %ID/g
N#[11C]c1ccc(-c2csc(NN=C3CCCC3)n2)cc1		C57BL/6 mouse, male	intravenous, 3 MBq, 60 min		uptake in large intestine with contents	2.01 ± 0.35 %ID/g
O=C1NC2(CC2)COc2ncc(F)cc2[C@H]2COCCN2c2ccn3ncc1c3n2		Sprague-Dawley rat, female, brain	oral, 5 mg/kg/day, 4 weeks dosing, end of recovery		organ-to-body weight ratio	0.68 ± 0.039%
CSCC[C@H](N)C(=O)N[C@@H](C)C(=O)N[C@@H](CCCNC(=N)N)C(=O)N[C@@H](CCCNC(=N)N)C(=O)N[C@@H](CC(=O)O)C(=O)N[C@@H](CCCCN)C(=O)N[C@H](C(=O)N[C@@H](CC(=O)O)C(=O)N[C@@H](Cc1ccccc1)C(=O)N[C@@H](C)C(=O)N[C@@H](CCCNC(=N)N)C(=O)N[C@@H](CCCNC(=N)N)C(=O)N[C@@H](CCCNC(=N)N)C(=O)N[C@@H](CCCNC(=N)N)C(=O)NCCCCCC(=O)NCCCCC(NC(=O)CCCCCNC(=O)[C@H](CCCNC(=N)N)NC(=O)[C@H](CCCNC(=N)N)NC(=O)[C@H](CCCNC(=N)N)NC(=O)[C@H](CCCNC(=N)N)NC(=O)[C@H](C)NC(=O)[C@H](Cc1ccccc1)NC(=O)[C@H](CC(=O)O)NC(=O)[C@@H](NC(=O)[C@H](CCCCN)NC(=O)[C@H](CC(=O)O)NC(=O)[C@H](CCCNC(=N)N)NC(=O)[C@H](CCCNC(=N)N)NC(=O)[C@H](C)NC(=O)[C@@H](N)CCSC)[C@@H](C)O)C(=O)NCCCCC(NC(=O)C(CCCCNC(=O)CCCCCNC(=O)[C@H](CCCNC(=N)N)NC(=O)[C@H](CCCNC(=N)N)NC(=O)[C@H](CCCNC(=N)N)NC(=O)[C@H](CCCNC(=N)N)NC(=O)[C@H](C)NC(=O)[C@H](Cc1ccccc1)NC(=O)[C@H](CC(=O)O)NC(=O)[C@@H](NC(=O)[C@H](CCCCN)NC(=O)[C@H](CC(=O)O)NC(=O)[C@H](CCCNC(=N)N)NC(=O)[C@H](CCCNC(=N)N)NC(=O)[C@H](C)NC(=O)[C@@H](N)CCSC)[C@@H](C)O)NC(=O)CCCCCNC(=O)[C@H](CCCNC(=N)N)NC(=O)[C@H](CCCNC(=N)N)NC(=O)[C@H](CCCNC(=N)N)NC(=O)[C@H](CCCNC(=N)N)NC(=O)[C@H](C)NC(=O)[C@H](Cc1ccccc1)NC(=O)[C@H](CC(=O)O)NC(=O)[C@@H](NC(=O)[C@H](CCCCN)NC(=O)[C@H](CC(=O)O)NC(=O)[C@H](CCCNC(=N)N)NC(=O)[C@H](CCCNC(=N)N)NC(=O)[C@H](C)NC(=O)[C@@H](N)CCSC)[C@@H](C)O)C(N)=O)[C@@H](C)O (some centres unmarked)		C57BL/6 mouse female, ovary	dose not given, 3 h	relative to: total	tissue distribution	0.17% and 1.77% and 0.86%
Nc1nonc1-c1nnc2c(n1)-c1ccccc1C2=O		BALB/c mice	intraperitoneal, repeated, 3 weeks		maximum tolerated dose	20 mg/kg
CC[C@H](C)[C@H](NC(=O)[C@H](CCCCN)NC(=O)CNC(=O)[C@H](CC(C)C)NC(=O)[C@H](Cc1ccccc1)NC(=O)[C@H](CCCCN)NC(=O)[C@H](CO)NC(=O)[C@H](Cc1ccccc1)NC(=O)[C@H](Cc1c[nH]c2ccccc12)NC(=O)[C@H](CCC(N)=O)NC(=O)[C@@H](NC(=O)[C@H](Cc1ccccc1)NC(=O)CCCCCNC(=O)CN1CCN(CC(=O)O)CCN(CC(=O)O)CCN(CC(=O)O)CC1)C(C)C)C(=O)N[C@@H](CCC(=O)O)C(=O)N1CCC[C@H]1C(=O)N[C@@H](CC(=O)O)C(=O)N[C@H](C(=O)N[C@@H](CO)C(=O)N[C@@H](CCC(N)=O)C(=O)N[C@H](C(=O)N[C@@H](CCC(N)=O)C(=O)N[C@@H](CC(=O)O)C(=O)N1CCC[C@H]1C(=O)N[C@@H](CC(N)=O)C(=O)N[C@@H](CC(=O)O)C(=O)N[C@@H](CCC(N)=O)C(=O)N[C@@H](Cc1ccc(O)cc1)C(=O)N[C@@H](CCC(=O)O)C(=O)N1CCC[C@H]1C(=O)N[C@@H](Cc1ccccc1)C(=O)O)C(C)C)C(C)C [copper-64 labelled]	dynamic PET	mouse both sexes, CT26 tumour, untreated, tumour	intravenous, 100 µCi/mouse, 10 s		SUVmean	0.03 SUV
CC(=O)NCCCC[C@@H]1NC(=O)[C@H](Cc2c[nH]c3c(C)cccc23)NC(=O)[C@H]([C@@H](C)O)NC(=O)[C@H](CC(N)=O)NC(=O)[C@@H](NC(C)=O)C(C)(C)SSC(C)(C)[C@@H](C(=O)N[C@@H](Cc2ccc(OCCN)cc2)C(=O)N[C@@H](Cc2ccc3ccccc3c2)C(=O)NC2(C(=O)N[C@@H](CCC(=O)O)C(=O)N[C@@H](CC(N)=O)C(=O)N[C@@H](Cc3cccnc3)C(=O)N(C)CC(N)=O)CCOCC2)NC1=O	equilibrium dialysis	mouse, plasma	0.01 µM		plasma protein binding	56 ± 2.5%
CCCC[C@H]1C(=O)N(C)[C@@H](CCCC)C(=O)N[C@@H](CCCNC(=O)CN2CCN(CC(=O)O)CCN(CC(=O)O)CCN(CC(=O)O)CC2)C(=O)N[C@H](C(=O)NCC(N)=O)CSCC(=O)N[C@@H](Cc2ccc(O)cc2)C(=O)N(C)[C@@H](C)C(=O)N[C@@H](CC(N)=O)C(=O)N2CCC[C@H]2C(=O)N[C@@H](Cc2c[nH]cn2)C(=O)N[C@@H](CC(C)C)C(=O)N(C)CC(=O)N[C@@H](Cc2c[nH]c3ccccc23)C(=O)N[C@@H](CO)C(=O)N[C@@H](Cc2c[nH]c3ccccc23)C(=O)N1C [gallium-68 labelled]		NOD/SCID mice, CHO-hPD-L1 xenograft, kidney	60 min, added: blocking agent 50 µg co-injected		tissue uptake	56.1 ± 16.4 %ID/g
CC(C)[C@@H]1NC(=O)CNC(=O)[C@H](CC(N)=O)NC(=O)[C@H](CCCNC(=N)N)NC(=O)[C@H](Cc2ccc(O)cc2)NC(=O)[C@H](C(C)C)NC(=O)[C@@H](NC(=O)[C@@H](NC(=O)[C@H](CC(N)=O)NC(=O)[C@H](Cc2c[nH]c3ccccc23)NC(=O)[C@H](C)NC(=O)[C@H](Cc2ccccc2)NC(=O)CNC(=O)[C@H](CCCCN)NC(=O)[C@H](Cc2ccccc2)NC(=O)[C@H](Cc2ccccc2)NC(=O)[C@H](CCCCN)NC(=O)OCC2c3ccccc3-c3ccccc32)C(C)C)CSSC[C@@H](C(=O)N[C@@H](Cc2c[nH]cn2)C(=O)N[C@@H](CCCNC(=N)N)C(=O)N[C@@H](CCCNC(=N)N)C(=O)N[C@@H](C)C(=O)N[C@@H](CC(N)=O)C(N)=O)NC(=O)[C@H](C(C)C)NC(=O)[C@H](CCCNC(=N)N)NC1=O		mouse mammary gland homogenate 50 mg/mL	8.00 h, 37 °C		peptide remaining	69.7% and 64.9% and 71%
CCCCCCCCCCCCCCCC(=O)OCC(CSC[C@H](N)C(=O)N[C@@H](CO)C(=O)N[C@@H](CCCCN)C(=O)N[C@@H](CCCCN)C(=O)N[C@@H](CCCCN)C(=O)N[C@@H](CCCCN)C(=O)NCCCCCC(=O)N[C@@H](CCCCN)C(=O)N[C@@H](CC(C)C)C(=O)N[C@H](C(=O)N[C@@H](Cc1ccccc1)C(=O)N[C@@H](Cc1ccccc1)C(=O)N[C@@H](Cc1ccc2ccccc2c1)C(=O)O)C(C)C)OC(=O)CCCCCCCCCCCCCCC (some centres unmarked)		C57BL/6J mouse, serum	intraperitoneal, dose not given		serum AST	93 U/L and 92.6 U/L and 116 U/L and 117 U/L and 93.7 U/L
C=CC(=O)Nc1cccc(Cn2ncc3cnc(Nc4cnn(CCOC)c4)nc32)c1		Sprague-Dawley rat male, serum	oral, 180 mg/kg, day 28, 28-day subacute toxicity		serum ALT	46 ± 16.3 U/L
CC(=O)CCC1C(=O)NC(C(C)C)C(=O)NC(Cc2cc(O)cc(F)c2)C(=O)N2CCCC(N2)C(=O)OC(C(C)=CC=CC(=O)N2CCCCO2)CC=CC=CC(O)C(C)C1O (centres unmarked)		CD-1 mice, serum	oral, 5 mg/kg repeated, day 7		total bilirubin	2.9 µM
CN1Cc2cc(Cl)ccc2-n2c(nnc2C2CCN(c3cccc([18F])n3)CC2)C1		C57BL/6 mouse male, lung	intravenous, 3.7 MBq, 15 min		tissue uptake	5.24 ± 0.88 %ID/g
CCCCCCCCCCCCCCCC(=O)N[C@@H](CCC(=O)NCCOCCOCCC(=O)NCCOCCOCCC(=O)NCCCC[C@H](NC(=O)[C@H](CC(=O)O)NC(=O)[C@H](CC(C)C)NC(=O)[C@H](Cc1ccc(O)cc1)NC(=O)[C@H](CCCCN)NC(=O)[C@H](CO)NC(=O)[C@H](Cc1ccc(O)cc1)NC(=O)[C@H](CC(=O)O)NC(=O)[C@H](CO)NC(=O)[C@@H](NC(=O)[C@H](Cc1ccccc1)NC(=O)[C@@H](NC(=O)CNC(=O)[C@H](CCC(N)=O)NC(=O)[C@@H](CO)NC(=O)[C@@H](N)Cc1c[nH]cn1)[C@@H](C)O)[C@@H](C)O)C(=O)N[C@@H](CCCNC(=N)N)C(=O)N[C@@H](CCCNC(=N)N)C(=O)N[C@@H](C)C(=O)N[C@@H](CCC(N)=O)C(=O)N[C@@H](CC(=O)O)C(=O)N[C@@H](Cc1ccccc1)C(=O)N[C@H](C(=O)N[C@@H](CCC(N)=O)C(=O)N[C@@H](Cc1c[nH]c2ccccc12)C(=O)N[C@@H](CC(C)C)C(=O)N[C@@H](CC(C)C)C(=O)N[C@@H](CC(N)=O)C(=O)N[C@H](C(=O)NCC(=O)NCC(=O)N1CCC[C@H]1C(=O)N[C@@H](CO)C(=O)N[C@@H](CO)C(=O)NCC(=O)N[C@@H](C)C(=O)N1CCC[C@H]1C(=O)N1CCC[C@H]1C(=O)N1CCC[C@H]1C(=O)N[C@@H](CO)C(N)=O)[C@@H](C)O)C(C)C)C(=O)O		rhesus monkey, male	subcutaneous, 300 µg/kg once daily, 28 days		total cholesterol	2.11 ± 0.26 mmol/L
C=Cc1c(C)c2cc3nc(c(CC(=O)O)c4[nH]c(cc5nc(cc1[nH]2)C(C)=C5CC)c(C)c4C(=O)O)[C@@H](CCC(=O)NCCCC[C@H](NC(C)=O)C(=O)N[C@@H](Cc1ccccc1)C(=O)N[C@@H](Cc1ccccc1)C(=O)N[C@H](C(=O)N[C@@H](CC(C)C)C(=O)N[C@@H](CCCCN)C(=O)N[C@@H](CO)C(=O)NCC(=O)N[C@@H](CCC(N)=O)C(=O)N[C@@H](Cc1ccc(O)cc1)C(=O)N[C@@H](C)C(=O)N[C@@H](CO)C(=O)N[C@@H](Cc1ccc(O)cc1)C(=O)N[C@@H](Cc1c[nH]cn1)C(=O)N[C@@H](CS)C(=O)N[C@@H](Cc1c[nH]c2ccccc12)C(=O)N[C@@H](CS)C(=O)N[C@@H](Cc1c[nH]c2ccccc12)C(=O)N[C@@H](CCCNC(=N)N)C(=O)N[C@@H](CC(=O)O)C(=O)N1CCC[C@H]1C(=O)NCC(=O)N[C@@H](CCCNC(=N)N)C(=O)N[C@@H](CO)C(=O)NCC(=O)NCC(=O)N[C@@H](CO)C(=O)N[C@@H](CCCCN)C(N)=O)C(C)C)[C@@H]3C		mouse, blood	0 h		blood concentration	171 µg/mL and 175 µg/mL
N=C(N)NCCC[C@@H](NC(=O)[C@H](N)Cc1c[nH]c2ccccc12)C(=O)N[C@H](CCCCN)C(=O)N[C@H](Cc1c[nH]c2ccccc12)C(=O)N[C@H](CCCNC(=N)N)C(=O)N[C@H](CCCCN)C(=O)N[C@H](Cc1c[nH]c2ccccc12)C(=O)N[C@H](CCCNC(=N)N)C(=O)N[C@H](CCCCN)C(=O)N[C@H](Cc1c[nH]c2ccccc12)C(=O)N[C@H](CCCNC(=N)N)C(=O)N[C@H](CCCCN)C(N)=O		mouse, lung	intravenous, 20 mg/kg single dose, 7 days		organ index	0.666

Excerpt of the above:
Structure (SMILES)	test	system	conditions	scale	quantity	value
N#[11C]c1ccc(-c2csc(NN=C3CCCC3)n2)cc1		C57BL/6 mouse, male	intravenous, 3 MBq, 60 min		uptake in large intestine with contents	2.01 ± 0.35 %ID/g
CSCC[C@H](NC(=O)CNC(=O)[C@H](CCCCN)NC(=O)[C@H](CC(C)C)NC(=O)[C@@H]1CCCN1C(=O)[C@H](CO)NC(=O)[C@H](Cc1c[nH]cn1)NC(=O)[C@H](Cc1c[nH]c2ccccc12)NC(=O)[C@H](CCCNC(=N)N)NC(=O)[C@H](CC(C)C)NC(=O)[C@H](CCCNC(=N)N)NC(=O)[C@H](Cc1c[nH]c2ccccc12)NC(=O)[C@H](CS)NC(=O)CCCCCNC(=O)CN1CCN(CC(=O)O)CCN(CC(=O)O)CCN(CC(=O)O)CC1)C(=O)O [copper-64 labelled]	PET imaging	BALB/c nude mice, liver	intravenous, dose not given, 55 h, Huh-7 tumour-bearing		tissue uptake	5.05 ± 0.19 %ID/g
